Measurements of several laboratories.
Numbers after ± are the reported error.
PFF0160c E182D: Dihydroorotate dehydrogenase (quinone), mitochondrial (PFF0160c, Plasmodium falciparum, UniProt Q08210, E182D)
Chain of UniProt P36544 (whole entry, looked up): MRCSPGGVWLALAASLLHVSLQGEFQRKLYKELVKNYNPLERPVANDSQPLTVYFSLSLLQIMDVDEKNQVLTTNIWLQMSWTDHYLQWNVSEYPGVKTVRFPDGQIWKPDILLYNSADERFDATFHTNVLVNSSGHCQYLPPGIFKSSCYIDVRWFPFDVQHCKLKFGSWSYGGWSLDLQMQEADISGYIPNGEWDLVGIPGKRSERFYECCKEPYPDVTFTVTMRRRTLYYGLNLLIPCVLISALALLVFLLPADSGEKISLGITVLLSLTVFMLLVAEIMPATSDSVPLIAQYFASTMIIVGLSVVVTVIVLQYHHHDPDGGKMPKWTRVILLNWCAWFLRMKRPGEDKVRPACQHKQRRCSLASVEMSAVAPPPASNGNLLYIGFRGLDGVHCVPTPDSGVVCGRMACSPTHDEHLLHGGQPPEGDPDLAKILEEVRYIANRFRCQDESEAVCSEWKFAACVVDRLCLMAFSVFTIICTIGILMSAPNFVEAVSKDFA
Chain of UniProt Q13324 (whole entry, looked up): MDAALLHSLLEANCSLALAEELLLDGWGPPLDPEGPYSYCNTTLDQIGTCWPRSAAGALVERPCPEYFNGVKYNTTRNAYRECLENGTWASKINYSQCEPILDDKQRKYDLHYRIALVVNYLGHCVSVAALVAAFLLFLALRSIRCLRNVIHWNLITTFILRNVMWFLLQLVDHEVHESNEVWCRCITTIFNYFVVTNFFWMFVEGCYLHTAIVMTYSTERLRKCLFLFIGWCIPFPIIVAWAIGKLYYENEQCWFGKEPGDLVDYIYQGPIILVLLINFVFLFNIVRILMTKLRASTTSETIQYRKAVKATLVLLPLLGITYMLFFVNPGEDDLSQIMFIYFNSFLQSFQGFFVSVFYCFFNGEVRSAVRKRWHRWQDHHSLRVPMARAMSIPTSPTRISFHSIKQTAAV
Chain of UniProt P23979 (whole entry, unmodified, looked up): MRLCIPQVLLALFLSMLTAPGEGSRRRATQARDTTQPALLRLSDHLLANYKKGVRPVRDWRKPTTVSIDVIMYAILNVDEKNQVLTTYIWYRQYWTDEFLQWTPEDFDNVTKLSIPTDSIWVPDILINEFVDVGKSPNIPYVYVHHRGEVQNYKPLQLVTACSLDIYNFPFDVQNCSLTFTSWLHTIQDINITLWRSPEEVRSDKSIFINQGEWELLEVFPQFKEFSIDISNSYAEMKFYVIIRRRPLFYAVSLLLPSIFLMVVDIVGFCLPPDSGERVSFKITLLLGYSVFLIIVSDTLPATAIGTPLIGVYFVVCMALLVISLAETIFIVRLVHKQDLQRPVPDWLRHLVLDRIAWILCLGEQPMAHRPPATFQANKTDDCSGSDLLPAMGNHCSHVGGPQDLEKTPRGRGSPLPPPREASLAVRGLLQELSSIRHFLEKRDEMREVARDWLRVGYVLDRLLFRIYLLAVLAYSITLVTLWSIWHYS
Chain of UniProt P20782 (whole entry, looked up): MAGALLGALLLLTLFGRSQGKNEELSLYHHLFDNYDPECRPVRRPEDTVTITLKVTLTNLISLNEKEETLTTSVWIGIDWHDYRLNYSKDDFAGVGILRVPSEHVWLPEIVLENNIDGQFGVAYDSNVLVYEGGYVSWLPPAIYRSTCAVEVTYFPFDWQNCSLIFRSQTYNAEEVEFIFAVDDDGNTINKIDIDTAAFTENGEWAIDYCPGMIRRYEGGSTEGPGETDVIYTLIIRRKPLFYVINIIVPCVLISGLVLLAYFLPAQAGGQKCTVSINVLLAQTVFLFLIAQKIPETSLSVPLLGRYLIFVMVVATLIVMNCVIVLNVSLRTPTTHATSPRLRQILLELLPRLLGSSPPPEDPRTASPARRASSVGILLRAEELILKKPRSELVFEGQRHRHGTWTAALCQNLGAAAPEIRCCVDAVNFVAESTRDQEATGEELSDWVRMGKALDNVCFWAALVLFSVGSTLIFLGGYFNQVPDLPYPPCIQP
Chain of UniProt P22303 (whole entry, looked up): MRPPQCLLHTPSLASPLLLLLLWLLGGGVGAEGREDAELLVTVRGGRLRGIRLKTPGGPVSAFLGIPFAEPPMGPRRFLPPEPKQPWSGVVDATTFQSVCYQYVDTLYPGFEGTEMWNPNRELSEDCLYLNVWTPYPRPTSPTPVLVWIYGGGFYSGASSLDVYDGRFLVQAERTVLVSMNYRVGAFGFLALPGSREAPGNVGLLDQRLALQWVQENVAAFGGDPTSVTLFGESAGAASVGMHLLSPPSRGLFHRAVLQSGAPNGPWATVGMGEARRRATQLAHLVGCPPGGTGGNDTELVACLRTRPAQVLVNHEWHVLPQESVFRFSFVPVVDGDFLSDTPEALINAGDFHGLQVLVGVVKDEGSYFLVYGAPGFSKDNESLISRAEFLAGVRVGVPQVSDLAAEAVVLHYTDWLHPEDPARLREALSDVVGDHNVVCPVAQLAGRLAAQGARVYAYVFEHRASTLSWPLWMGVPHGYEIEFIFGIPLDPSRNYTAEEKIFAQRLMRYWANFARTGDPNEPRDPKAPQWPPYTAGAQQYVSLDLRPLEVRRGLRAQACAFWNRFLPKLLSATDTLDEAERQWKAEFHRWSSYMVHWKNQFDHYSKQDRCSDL
Chain of UniProt P25106 (whole entry, looked up): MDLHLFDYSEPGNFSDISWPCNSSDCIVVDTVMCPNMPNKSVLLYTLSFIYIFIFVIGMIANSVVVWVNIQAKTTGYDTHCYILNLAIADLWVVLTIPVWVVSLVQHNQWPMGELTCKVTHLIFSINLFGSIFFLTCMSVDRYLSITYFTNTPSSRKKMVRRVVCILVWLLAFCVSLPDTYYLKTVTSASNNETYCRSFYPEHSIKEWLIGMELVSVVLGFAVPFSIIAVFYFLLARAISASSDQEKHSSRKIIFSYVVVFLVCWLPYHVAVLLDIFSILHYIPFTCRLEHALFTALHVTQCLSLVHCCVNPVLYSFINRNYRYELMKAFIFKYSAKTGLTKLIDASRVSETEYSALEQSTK
Chain of UniProt Q15758 (whole entry, looked up): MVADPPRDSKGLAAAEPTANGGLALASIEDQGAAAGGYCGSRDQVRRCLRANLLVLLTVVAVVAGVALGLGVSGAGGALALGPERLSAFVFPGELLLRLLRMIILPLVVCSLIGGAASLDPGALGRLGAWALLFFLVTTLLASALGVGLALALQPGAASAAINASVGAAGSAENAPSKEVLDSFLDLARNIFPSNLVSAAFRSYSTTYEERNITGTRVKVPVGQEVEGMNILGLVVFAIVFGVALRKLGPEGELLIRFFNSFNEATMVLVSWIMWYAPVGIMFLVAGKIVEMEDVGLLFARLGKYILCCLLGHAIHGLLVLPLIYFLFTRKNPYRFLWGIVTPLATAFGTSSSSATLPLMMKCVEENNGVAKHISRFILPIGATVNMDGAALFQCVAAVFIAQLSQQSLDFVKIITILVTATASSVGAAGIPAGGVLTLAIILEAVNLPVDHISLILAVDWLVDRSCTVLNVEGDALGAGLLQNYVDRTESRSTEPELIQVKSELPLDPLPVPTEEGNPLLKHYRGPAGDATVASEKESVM
Chain of UniProt O75582 (whole entry, looked up): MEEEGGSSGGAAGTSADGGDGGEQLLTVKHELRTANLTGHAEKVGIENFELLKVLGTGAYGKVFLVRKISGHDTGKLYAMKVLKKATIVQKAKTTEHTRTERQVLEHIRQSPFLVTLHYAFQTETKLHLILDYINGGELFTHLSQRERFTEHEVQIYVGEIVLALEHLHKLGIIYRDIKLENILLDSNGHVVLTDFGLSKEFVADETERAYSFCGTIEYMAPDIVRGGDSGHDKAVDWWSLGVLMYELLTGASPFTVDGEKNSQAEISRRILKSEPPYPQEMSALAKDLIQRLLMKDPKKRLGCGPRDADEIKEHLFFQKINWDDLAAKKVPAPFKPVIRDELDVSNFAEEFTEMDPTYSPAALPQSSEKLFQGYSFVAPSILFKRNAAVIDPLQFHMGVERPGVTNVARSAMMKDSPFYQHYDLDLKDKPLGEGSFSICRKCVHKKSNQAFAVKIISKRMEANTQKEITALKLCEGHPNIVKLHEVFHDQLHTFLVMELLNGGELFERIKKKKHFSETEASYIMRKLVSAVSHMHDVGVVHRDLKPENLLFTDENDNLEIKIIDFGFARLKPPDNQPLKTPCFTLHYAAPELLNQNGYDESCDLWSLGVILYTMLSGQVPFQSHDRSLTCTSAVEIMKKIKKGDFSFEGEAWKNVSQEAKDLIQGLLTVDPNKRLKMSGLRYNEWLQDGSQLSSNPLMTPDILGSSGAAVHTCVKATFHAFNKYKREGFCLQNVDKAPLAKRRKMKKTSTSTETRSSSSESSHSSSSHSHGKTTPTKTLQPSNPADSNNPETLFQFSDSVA
Chain of UniProt P04756 (whole entry, looked up): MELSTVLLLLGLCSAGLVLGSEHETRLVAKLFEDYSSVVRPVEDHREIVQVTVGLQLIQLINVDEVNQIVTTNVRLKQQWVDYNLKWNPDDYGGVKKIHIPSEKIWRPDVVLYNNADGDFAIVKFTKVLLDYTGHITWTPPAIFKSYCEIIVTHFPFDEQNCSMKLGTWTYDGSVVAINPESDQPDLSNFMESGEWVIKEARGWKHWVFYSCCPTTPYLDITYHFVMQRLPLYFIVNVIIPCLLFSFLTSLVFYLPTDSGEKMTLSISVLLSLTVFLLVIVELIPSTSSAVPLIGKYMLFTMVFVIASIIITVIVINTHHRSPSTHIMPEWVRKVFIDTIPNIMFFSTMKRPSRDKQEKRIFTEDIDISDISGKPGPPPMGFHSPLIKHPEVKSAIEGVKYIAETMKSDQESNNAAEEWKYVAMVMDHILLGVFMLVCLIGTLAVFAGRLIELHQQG
Chain of UniProt Q91XE4 (whole entry, looked up): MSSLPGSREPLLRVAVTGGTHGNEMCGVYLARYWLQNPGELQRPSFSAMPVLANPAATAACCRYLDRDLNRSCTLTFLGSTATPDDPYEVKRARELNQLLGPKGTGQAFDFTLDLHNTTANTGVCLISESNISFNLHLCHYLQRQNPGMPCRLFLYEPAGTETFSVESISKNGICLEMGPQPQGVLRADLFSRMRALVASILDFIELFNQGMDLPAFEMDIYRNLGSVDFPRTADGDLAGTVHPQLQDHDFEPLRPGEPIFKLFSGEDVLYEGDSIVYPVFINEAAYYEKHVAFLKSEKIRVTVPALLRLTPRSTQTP

COc1cc(Nc2ncc(F)c(Nc3ccc4c(n3)NC(=O)C(C)(C)O4)n2)cc(OC)c1OC has an inhibition of 0% (RPS6KA5 (Homo sapiens, UniProt O75582); kinase binding, KINOMEscan; 10 µM, kinase domain 1 N-terminal).
For CC[C@H](C)[C@H](NC(=O)CNC(=O)[C@@H](N)CCCCN)C(=O)N[C@@H](CC(C)C)C(=O)N[C@@H](CCCCN)C(=O)N[C@@H](CCCNC(=N)N)C(=O)N[C@@H](CCC(=O)O)C(=O)N[C@@H](CCCCN)C(=O)N[C@@H](CCCNC(=N)N)C(=O)N[C@@H](CC(C)C)C(=O)N[C@@H](CCCNC(=N)N)C(=O)N[C@@H](CCCNC(=N)N)C(=O)N[C@@H](CCCCN)C(=O)N[C@@H](CC(N)=O)C(=O)N[C@H](C(=O)N[C@@H](Cc1c[nH]cn1)C(=O)N[C@@H](Cc1c[nH]c2ccccc12)C(=O)N1CCC[C@H]1C(=O)N[C@@H](CCC(=O)O)C(=O)N[C@@H](CCC(=O)O)C(=O)NCC(=O)N[C@@H](CCCCN)C(=O)N[C@@H](CC(C)C)C(=O)N[C@@H](CCCNC(=N)N)C(=O)N[C@@H](CCC(=O)O)C(=O)N[C@@H](Cc1ccc(O)cc1)C(=O)N[C@@H](Cc1ccccc1)C(=O)N[C@@H](Cc1ccc(O)cc1)C(=O)N[C@@H](Cc1ccccc1)C(=O)N[C@@H](CCC(=O)O)C(=O)N[C@@H](CC(C)C)C(=O)N[C@@H](CC(=O)O)C(=O)N[C@@H](CCC(=O)O)C(=O)N[C@@H](C)C(=O)N[C@@H](CCC(=O)O)C(=O)N[C@@H](CCCNC(=N)N)C(=O)N[C@H](C(=O)N[C@@H](CC(N)=O)C(=O)N[C@H](C(=O)O)C(C)C)C(C)C)C(C)C, the ΔS was -76.8 ± 31.8 cal/mol/K (Serine/threonine-protein phosphatase PP1-gamma catalytic subunit (Homo sapiens, UniProt P36873); binding, ITC; 25 °C).
For C[N+](C)(C)[C@@H](Cc1c[nH]c(=S)[nH]1)C(=O)[O-], the ΔH was -3.92 ± 0.674 kcal/mol (Ergothioneine transport permease/ergothioneine binding protein EgtU, substrate-binding domain (egtU, Helicobacter pylori, UniProt B5Z7I3); ITC; 30 °C, substrate-binding domain).
For CC[C@@H](C)[C@@H](NC(=O)[C@@H](Cc1ccc(O)cc1)NC(=O)[C@H]1CCCN1C(=O)[C@@H](CCCNC(=N)N)NC(=O)[C@H](N)Cc1c[nH]cn1)C(=O)N[C@H](C)C(=O)N[C@H](Cc1c[nH]cn1)C(=O)N[C@H](CCCNC(=N)N)C(=O)N[C@H](CCCCNC(=O)c1cccc(S(=O)(=O)F)c1)C(=O)N[C@H](Cc1ccc(O)cc1)C(=O)N[C@H](CO)C(=O)N[C@H](Cc1ccccc1)C(N)=O, “surface TFRC expression” read 1.18 (Transferrin receptor protein 1 (Tfrc, Mus musculus, UniProt Q62351); flow cytometry; RAW264.7; 48 h, pH 6, replicate 1, unit not given; reference: 0 h).
For O=C(c1ccc(Cl)cc1)N1CCN2C(=O)N(OC(=O)N3CCOc4ccccc43)C(=O)C2C1 (stereo not drawn), “median protein ratio” read 1.14 (SLC1A5 (Homo sapiens, UniProt Q15758); MS-based ABPP; SW-620 conditioned medium; 10 µM, 1 h, 37 °C; reference: compound over DMSO, lower = more inhibition).
With C/C=C1/CN2CC[C@]34C(=C(C(=O)OC)[C@H]1C[C@H]23)Nc1ccc(I)cc14 the active concentration was at least 3 µM (ACKR3 (Homo sapiens, UniProt P25106); agonist).
With CCC1=C[C@@H]2CN3CCc4c([nH]c5ccccc45)[C@@](C(=O)OC)(C2)[C@@H]13 the koff was 2.6e-07 s⁻¹ (Nuclear receptor subfamily 2 group C member 2, ligand-binding domain (Homo sapiens, UniProt P49116); SPR imaging; 600 nM).
COc1ccc(N2C(=O)N(c3c(C)cccc3Cl)Cc3cnc(Nc4ccc(C5CCN(C)CC5)cc4OC)nc32)nc1 gave an inhibition of 1.65% (CLK3 (Homo sapiens, UniProt P49761); kinase activity; 0.5 µM).
COc1nc(NCC(C)C)nc(Oc2ccc(=O)n(Cc3ccccc3)n2)n1 gave an IC50 ratio of 37 (PFF0160c E182D; enzyme activity, DCIP colorimetric; reference: E182D mutant over wild type).
Clc1ccc(Nc2nc3ccccc3c3nc(C4CCCCC4)[nH]c23)cc1Cl — result for activity class: “inactive” (ACHE (Homo sapiens, UniProt P22303); biochemical; concentration not given).
For CCn1c(-c2nc3cc(C(=O)N4CCC[C@@H](N)C4)cc(OC)c3n2C)cc2cccnc21, the selectivity ratio was 24 (PADI1 (Homo sapiens, UniProt Q9ULC6); reference: Ki' PAD1 over PAD4).
With COc1cc(-c2[o+]c3cc(O)cc(O)c3cc2O[C@@H]2O[C@H](CO)[C@@H](O)[C@H](O)[C@H]2O)cc(OC)c1O the binding entropy was 0.11 kJ/(mol·K) (Albumin (ALB, Bos taurus, UniProt P02769); fluorescence quenching; concentration not given).
For O=C(O)COP(=O)(O)O, the Ki ratio was 11 (TPI1 (Saccharomyces cerevisiae, UniProt P00942, Y208T); enzyme activity, competitive inhibitor, GPDH/NADH-coupled; pH 4.9, 25 °C, ionic strength 0.1 NaCl, with: glyceraldehyde 3-phosphate substrate; reference: mutant over wild type).
For Nc1c2ncn([C@@H]3O[C@@H]4COP(=O)(O)O[C@H]4[C@H]3O)c2nc[n+]1[O-], “relative binding affinity” read 0.0055 (anti-cAMP antibody; antibody binding, competitive cAMP EIA; concentration not given, acetylated samples; reference: EC50 cAMP over EC50 cpd, higher = stronger binding).
C[C@@H]1CN(c2ccc(O)c(NS(=O)(=O)c3ccc(-c4ccco4)cc3)c2)C[C@H](C)N1.Cl has an IC50 ratio of 0.7 (PFF0160c E182D; enzyme activity, DCIP colorimetric; reference: E182D mutant over wild type).
Under “increase in binding signal”, CC(C)(C)NC[C@H](O)COc1nsnc1N1CCOCC1 is recorded as over 50% (Gag polyprotein, nucleocapsid protein p7 (gag, Human immunodeficiency virus type 1 group M subtype B, UniProt P04591); AlphaScreen; 45 µM, with: U3 RNA; reference: DMSO).
For COc1ccc2c3c([nH]c2c1)CCN(C)CC3.O=C(O)/C=C/C(=O)O, “recovery time constant” read 8.6 s (CHRNA7 (Homo sapiens, UniProt P36544); ion current, inhibitor, two-electrode voltage clamp; Xenopus laevis oocytes; 10 µM, human receptor, with: acetylcholine 100 µM).
[2H]c1c([2H])c([C@]2([2H])CCCN2C(=O)C(C)(C)Oc2ccc3cn[nH]c3c2)c([2H])c([2H])c1C([2H])([2H])[2H] gave a remaining binding of 57% (STK32C (Homo sapiens, UniProt Q86UX6); KINOMEscan; 1 µM; reference: DMSO control).
CN(CC(=O)O)C(=N)NP(=O)(O)O gave a Km of 90 ± 10 µM (CKMT1A (Homo sapiens, UniProt P12532, D359N); substrate, Kinase-Glo luminescence; pH 7.0, reverse reaction, D321N mutant, with: second substrate in excess).
For CCCCOc1ccccc1C(=O)NCc1csc(-c2ccccc2)n1, the IC50 ratio was 1.4 (PFF0160c E182D; enzyme activity, DCIP colorimetric; reference: E182D mutant over wild type).
The Hill coefficient of CN1C2CCCC1CC(NC(=O)c1nn(C)c3ccccc13)C2 (stereo not drawn) is reported as -1.1 ± 0.1 (Htr3a (Mus musculus, UniProt P23979, W90X); antagonist, voltage clamp; Xenopus oocytes).
CN1CCN(c2cc(-c3ccncc3)c(-c3ccc4ccccc4c3)nn2)CC1 has an activation of -0.7% (CRHR2 (Homo sapiens, UniProt Q13324); agonist, FLIPR; 12.5 µM).
For C[C@H]1CN(c2n[nH]c3nc(N[C@H]4CC[C@H](NS(=O)(=O)CCC(F)(F)F)CC4)ncc23)CCO1, the remaining binding was 1.14 (Lysine--tRNA ligase (KARS1, Homo sapiens, UniProt Q15046); Kinobeads competition, measured: KARS; 0.8 µM, unit not given; reference: vehicle).
The receptor block of COc1cc2c3cc1Oc1cc(ccc1O)C[C@@H]1c4c(cc(OC)c(O)c4Oc4ccc(cc4)C[C@@H]3N(C)CC2)CC[N+]1(C)C is reported as at least 65% (Chrnd/Chrna1/Chrne (Mus musculus, UniProt P02716+P04756+P20782); end-plate current, two-electrode voltage clamp; mouse hemidiaphragm; 0.1 µM).
With Oc1ccc2ccc3cccc4ccc1c2c34 the fold change was 1.02 (Aryl hydrocarbon receptor (Danio rerio, UniProt Q9YGV3); reporter gene, agonist, luciferase reporter; ZF-4; 1.524 µM; reference: vehicle control).
O=C(O)Cc1c[nH]cn1 — result for “normalised MST signal”: 0.37 (SLC6A6 (Homo sapiens, UniProt P31641, Y138A); binding, microscale thermophoresis; 125 µM, room temperature, with: 50 nM labelled protein; higher = more binding).
The Km of CC(=O)N[C@@H](CSCCC=O)C(=O)O is reported as 820 µM (N-acyl-aromatic-L-amino acid amidohydrolase (carboxylate-forming) (Acy3, Mus musculus, UniProt Q91XE4); enzyme activity, substrate, fluorescamine fluorescence; without Co2+).

For quick reference, copied from above:
With C/C=C1/CN2CC[C@]34C(=C(C(=O)OC)[C@H]1C[C@H]23)Nc1ccc(I)cc14 the active concentration was at least 3 µM (ACKR3 (Homo sapiens, UniProt P25106); agonist).
With CCC1=C[C@@H]2CN3CCc4c([nH]c5ccccc45)[C@@](C(=O)OC)(C2)[C@@H]13 the koff was 2.6e-07 s⁻¹ (Nuclear receptor subfamily 2 group C member 2, ligand-binding domain (Homo sapiens, UniProt P49116); SPR imaging; 600 nM).
